Assay results pooled from the literature.
Each line is one published result; not all experiments were run side by side. “And” joins repeats or separate records; there may be more than shown. Numbers after ± are the reported error.
Chain of UniProt P06873 (whole entry, looked up): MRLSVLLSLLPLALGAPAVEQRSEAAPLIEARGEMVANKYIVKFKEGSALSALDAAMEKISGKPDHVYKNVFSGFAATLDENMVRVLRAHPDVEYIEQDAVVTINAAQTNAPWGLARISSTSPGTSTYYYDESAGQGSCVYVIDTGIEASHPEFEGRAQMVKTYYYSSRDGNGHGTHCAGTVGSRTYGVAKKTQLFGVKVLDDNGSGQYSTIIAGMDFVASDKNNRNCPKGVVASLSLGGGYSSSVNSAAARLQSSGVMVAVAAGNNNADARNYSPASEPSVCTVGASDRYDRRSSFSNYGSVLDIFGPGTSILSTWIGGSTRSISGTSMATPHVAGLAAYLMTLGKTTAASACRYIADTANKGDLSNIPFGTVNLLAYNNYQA
Chain of UniProt P08183 (whole entry, looked up): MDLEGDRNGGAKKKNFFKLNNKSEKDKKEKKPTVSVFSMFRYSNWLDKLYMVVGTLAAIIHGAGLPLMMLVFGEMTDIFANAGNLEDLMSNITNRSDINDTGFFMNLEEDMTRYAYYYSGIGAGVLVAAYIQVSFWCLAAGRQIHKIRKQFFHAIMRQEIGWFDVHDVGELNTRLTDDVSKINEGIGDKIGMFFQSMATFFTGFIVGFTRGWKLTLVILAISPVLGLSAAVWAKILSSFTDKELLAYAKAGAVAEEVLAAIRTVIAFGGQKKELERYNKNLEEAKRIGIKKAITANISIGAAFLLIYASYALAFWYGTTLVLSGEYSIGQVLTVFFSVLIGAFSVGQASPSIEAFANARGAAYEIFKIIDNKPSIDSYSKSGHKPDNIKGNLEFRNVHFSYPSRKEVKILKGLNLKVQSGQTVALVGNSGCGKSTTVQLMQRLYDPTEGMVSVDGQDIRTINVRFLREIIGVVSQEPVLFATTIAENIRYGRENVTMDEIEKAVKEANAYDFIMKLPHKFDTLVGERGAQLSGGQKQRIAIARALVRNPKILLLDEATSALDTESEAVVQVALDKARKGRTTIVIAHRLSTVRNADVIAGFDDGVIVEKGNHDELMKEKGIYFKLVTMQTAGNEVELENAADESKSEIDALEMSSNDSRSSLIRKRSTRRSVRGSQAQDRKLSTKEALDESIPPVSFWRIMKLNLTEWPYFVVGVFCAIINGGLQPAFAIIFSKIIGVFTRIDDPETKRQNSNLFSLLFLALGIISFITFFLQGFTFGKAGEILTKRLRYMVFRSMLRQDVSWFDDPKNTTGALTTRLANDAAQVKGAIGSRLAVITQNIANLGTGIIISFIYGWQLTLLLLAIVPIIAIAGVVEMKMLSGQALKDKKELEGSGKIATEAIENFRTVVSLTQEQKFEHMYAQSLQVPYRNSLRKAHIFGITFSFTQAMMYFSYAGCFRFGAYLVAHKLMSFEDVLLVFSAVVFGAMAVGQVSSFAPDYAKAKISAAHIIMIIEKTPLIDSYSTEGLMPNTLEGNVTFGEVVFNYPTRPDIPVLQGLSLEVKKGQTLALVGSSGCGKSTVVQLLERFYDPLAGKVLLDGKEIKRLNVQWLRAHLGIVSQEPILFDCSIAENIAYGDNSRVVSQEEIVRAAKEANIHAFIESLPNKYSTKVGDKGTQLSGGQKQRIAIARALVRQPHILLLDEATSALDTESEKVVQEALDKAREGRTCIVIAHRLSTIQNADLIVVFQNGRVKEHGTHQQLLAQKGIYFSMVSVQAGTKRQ
Chain of UniProt Q14973 (whole entry, looked up): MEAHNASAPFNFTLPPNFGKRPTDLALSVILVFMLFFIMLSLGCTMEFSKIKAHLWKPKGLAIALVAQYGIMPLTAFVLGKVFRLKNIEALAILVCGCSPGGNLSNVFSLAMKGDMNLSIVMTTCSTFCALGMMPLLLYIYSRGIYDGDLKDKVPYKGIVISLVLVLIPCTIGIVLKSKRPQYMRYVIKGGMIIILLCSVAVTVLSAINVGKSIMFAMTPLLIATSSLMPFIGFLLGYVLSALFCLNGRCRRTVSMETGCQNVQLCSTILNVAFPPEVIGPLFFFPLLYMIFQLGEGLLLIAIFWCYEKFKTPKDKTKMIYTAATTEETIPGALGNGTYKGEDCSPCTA

| SMILES | target or system | test | system | conditions | scale | endpoint | result |
| --- | --- | --- | --- | --- | --- | --- | --- |
| CC(C)C[C@H](NC(=O)[C@H](C)NC(=O)[C@@H](NC(=O)[C@H](CCCNC(=N)N)NC(=O)[C@H](CC(C)C)NC(=O)[C@H](Cc1c[nH]c2ccccc12)NC(=O)[C@@H]1CCCN1C(=O)[C@@H](N)CCCCN)C(C)C)C(=O)N[C@@H](CS)C(=O)N1CCC[C@H]1C(=O)NCC(=O)O | Vero | WST-1 | – | 32 µM, 24 h | – | viability | 98.1% and 99.8% and 100% |
| N=C(N)NC(=O)Cc1c(Cl)cccc1Cl | Plasmodium falciparum | – | 3D7 | – | – | IC50 | 3.16 µM |
| CO[C@H]1C[C@@H]2CC[C@@H](C)[C@@](O)(O2)C(=O)C(=O)N2CCCC[C@H]2C(=O)O[C@H]([C@H](C)C[C@@H]2CC[C@@H](OC(=O)NCCOCCOCCOCCOCCOCCOCCOCCOCCC(=O)N3CCc4cc(Cn5nc(-c6ccc7oc(N)nc7c6)c6c(N)ncnc65)ccc4C3)[C@H](OC)C2)C[C@@H](O)[C@H](C)/C=C(\C)[C@@H](O)[C@@H](OC)C(=O)[C@H](C)C[C@H](C)/C=C/C=C/C=C/1C | – | – | patients with advanced solid tumours | intravenous, 16 mg weekly, any grade | – | anaemia incidence | 25% |
| CC1(C)C(/C=C(\Cl)C(F)(F)F)C1C(=O)OC(C#N)c1cccc(Oc2ccccc2)c1 (stereo not drawn) | human cytosolic CES1 | IVIVE from expressed enzymes | human, 6 months old | – | relative to: total hepatic CLint in vivo | relative enzyme contribution | 35.1% |
| CC(C)CC(=O)OC[C@H]1O[C@@](C#N)(c2ccc3c(N)ncnn23)[C@H](O)[C@@H]1O | ABCB1 (Homo sapiens, UniProt P08183) | – | Caco-2 | 90 µM, 2 h | – | recovery A to B | 53.3% |
| COc1cc2c(Oc3ccc4[nH]c(C)cc4c3F)ccnc2cc1OCC1(N)CC1 | – | item: grade 1 or 2 blurred vision | paediatric high-risk refractory sarcoma | 8 mg | – | incidence of adverse event | 0% |
| CC(C)=CC1C(C(=O)OC(C#N)c2cccc(Oc3ccccc3)c2)C1(C)C (stereo not drawn) | human cytosolic CES1 | IVIVE from expressed enzymes | human, 5 years old | – | relative to: total hepatic CLint in vivo | relative enzyme contribution | 33% |
| [Cl-].[Cl-].[Pt+2].[Ru+2].c1ccc(-c2nc3cc4ccccc4cc3nc2-c2ccccn2)nc1.c1cnc2c(c1)ccc1cccnc12.c1cnc2c(c1)ccc1cccnc12 | Danio rerio | – | embryos | 60 µM, 12 h | – | survival rate | 90 ± 2.8% |
| O=C(O)C(F)(F)C(F)(F)C(F)(F)C(F)(F)C(F)(F)C(F)(F)C(F)(F)F | SLC10A1 (Homo sapiens, UniProt Q14973) | uptake, substrate | HEK293 cells stably expressing SLC10A1, HBSS with HEPES | pH 7.4 | – | CLint | 6.53 ± 2.06 µL/min/mg |
| Nc1ncnc2c([C@@H]3N[C@H](CO)[C@@H](O)[C@H]3O)c[nH]c12 | HeLa | – | – | 100 µM | – | cell number | 4560 and 3670 |
| O=c1ccc2ccccc2o1 | HepG2 | item: IL-8 | – | 6 h | – | point of departure | 106 µM |
| O=S(=O)(c1cccc2c(Cl)cccc12)N1CCCNCC1 | Plasmodium falciparum | – | 7G8 | – | – | IC50 | 6.31 µM |
| Oc1ccc(C(c2ccc(O)cc2)(C(F)(F)F)C(F)(F)F)cc1 | HepG2 spheroids, dissociated | annexin V-FITC/PI flow cytometry | – | 0.01 µM, 96 h | – | late apoptotic cells | 22.3 ± 9.2% |
| CCN(CC)C(=O)[C@@H]1C=C2c3cccc4[nH]cc(c34)C[C@H]2N(C)C1 | – | – | human, plasma | dose not given, after placebo pretreatment | – | Vz/F | 35 L |
| CCCC[C@H](NC(C)=O)C(=O)N[C@@H](CO)C(=O)N[C@H](C(=O)N1CCC[C@H]1C(=O)N[C@@H](C)C(=O)N[C@@H](CCCNC(=N)N)C(=O)N[C@@H](CCCNC(=N)N)C(=O)N[C@@H](CCCNC(=N)N)C(=O)N[C@@H](CC(C)C)C(=O)N[C@@H](CCCC)C(=O)N[C@@H](CCCNC(=N)N)C(=O)N[C@@H](CC(=O)O)C(=O)N[C@@H](Cc1ccccc1)C(=O)N[C@@H](CCCCN)C(=O)N[C@@H](CCCNC(=N)N)C(=O)N[C@@H](CC(C)C)C(=O)N[C@@H](CCC(N)=O)C(N)=O)[C@@H](C)O | Proteinase K (PROK, Engyodontium album, UniProt P06873) | proteolytic stability, LC-MS | – | 25 µM, 20.5 min, pH 7.4 | – | remaining intact peptide | 42.7% and 50% |
| CC(=O)N1CCC(C(=O)N2CCN3C(=O)c4cc(-c5ccccc5)ccc4NC(=O)C3C2)CC1 (stereo not drawn) | Salmonella typhimurium | – | TA1537 | 158 µg/plate | relative to: vehicle | fold increase in revertants | 0.7 |
| Cc1cc(C(=O)NC(C)(C)COc2cccc3c2C(N)=NS(=O)(=O)N3)cc(C)n1 | Escherichia coli | Ames test, initial | WP2 uvrA | 50.0 µg/plate, with: rat liver S9 | relative to: solvent control | revertant ratio | 0.7 |
| COc1cccc(-c2n[nH]c(SCc3ccccn3)n2)c1OC | Salmonella typhimurium | Ames test, plate incorporation | TA100 | 0.25 mg/plate, without S9 | – | revertant colonies per plate | 108 |
| Cc1ccc(NC(=O)c2cc3c(=O)n4cccc(C)c4nc3n2C)cc1Cl | Vero | MTT | – | 25 µM, 24 (unit not given) | – | viability | 57% |
| OCc1ncc2n1-c1ccc(Cl)cc1C(c1ccccc1F)=NC2 | CYP3A4 (human) | – | human, plasma | oral, 2 mg midazolam, Day 14, with: encorafenib at steady state | relative to: Day -7 | geometric LS mean ratio of AUClast | 1.05 |
| CN(C)c1ccc(/N=N/c2ccc(Cl)cc2)cc1 | Gag-Pol polyprotein, integrase (gag-pol, Human immunodeficiency virus 1, UniProt P12497) | 3'-processing activity, inhibitor | – | wild-type integrase | – | IC50 | > 100 µM |

A few entries again:
| SMILES | target or system | test | system | conditions | scale | endpoint | result |
| --- | --- | --- | --- | --- | --- | --- | --- |
| [Cl-].[Cl-].[Pt+2].[Ru+2].c1ccc(-c2nc3cc4ccccc4cc3nc2-c2ccccn2)nc1.c1cnc2c(c1)ccc1cccnc12.c1cnc2c(c1)ccc1cccnc12 | Danio rerio | – | embryos | 60 µM, 12 h | – | survival rate | 90 ± 2.8% |
| O=C(O)C(F)(F)C(F)(F)C(F)(F)C(F)(F)C(F)(F)C(F)(F)C(F)(F)F | SLC10A1 (Homo sapiens, UniProt Q14973) | uptake, substrate | HEK293 cells stably expressing SLC10A1, HBSS with HEPES | pH 7.4 | – | CLint | 6.53 ± 2.06 µL/min/mg |
| Nc1ncnc2c([C@@H]3N[C@H](CO)[C@@H](O)[C@H]3O)c[nH]c12 | HeLa | – | – | 100 µM | – | cell number | 4560 and 3670 |
